Published values gathered from unrelated publications.
Protocols differ between the studies behind these lines. ± gives the spread as reported.
Cell line: HeLa

Structure (SMILES)	assay	system	setting	IC50
CC1=[N+]2N=C(c3ccccc3)[O][Pd-2]2([Cl])[O+]=C2Oc3ccccc3C=C21 (centres unmarked)	cytotoxicity, MTT	–	48 h	9.79 ± 0.8 µM
O=C1CCC(N2Cc3c(NC(=O)COCCOCCOCCOCCNCCNc4nonc4/C(=N/O)Nc4ccc(F)c(Br)c4)cccc3C2=O)C(=O)N1 (centres unmarked)	cytotoxicity, MTT	–	48 h	> 40 µM
C[C@@]1(CO)CC[C@]2(C(=O)O)CC[C@]3(C)C(=CCC4[C@@]5(C)C[C@@H](O)[C@H](O)[C@@](C)(CO)C5CC[C@]43C)C2C1 (some centres unmarked)	cell growth or viability, MTT	–	72 h	> 100 µM
O=C1CCC(N2Cc3c(NC(=O)COCCOCCNCCNc4nonc4/C(=N/O)Nc4ccc(F)c(Br)c4)cccc3C2=O)C(=O)N1 (centres unmarked)	cytotoxicity, MTT	–	48 h	> 40 µM
C[C@H](NC(=O)CCCCCC1(C)C(/C=C/C=C/C=C2/N(CCCS(=O)(=O)O)c3ccc(S(=O)(=O)O)cc3C2(C)C)=[N+](CCCS(=O)(=O)[O-])c2ccc(S(=O)(=O)O)cc21)C(=O)N[C@@H](CC(=O)Nc1ccc(C(F)(F)C(F)(F)C(F)(F)C(F)(F)C(F)(F)C(F)(F)F)cc1)C(=O)N[C@@H](Cc1ccccc1)C(N)=O (some centres unmarked)	cytotoxicity	serum-free DMEM	1 h	77 ± 7 µM
CN1C(=O)CCC(N2C(=O)c3cccc(NCCOCCOCCOCCOCCOCCOCCOCCNCCNc4nonc4/C(=N/O)Nc4ccc(F)c(Br)c4)c3C2=O)C1=O (centres unmarked)	cytotoxicity, MTT	–	48 h	> 40 µM
Oc1c(Br)cc(Br)c2nc3cc(Br)ccc3nc12	cytotoxicity, LDH release	–	24 h, 10% FBS	> 100 µM
CCCCCCCCCCCCc1ccc(NC(=O)C[C@H](NC(=O)[C@H](C)NC(=O)CCCCCC2(C)C(C=CC=CC=C3N(CCCS(=O)(=O)O)c4ccc(S(=O)(=O)O)cc4C3(C)C)=[N+](CCCS(=O)(=O)[O-])c3ccc(S(=O)(=O)O)cc32)C(=O)N[C@@H](Cc2ccccc2)C(N)=O)cc1 (some centres unmarked)	cytotoxicity	serum-free DMEM	1 h	11 ± 3 µM
Oc1c(Br)cc(Br)c2nc3cc(Cl)ccc3nc12	cytotoxicity, LDH release	–	24 h, 10% FBS	> 100 µM
C=C1CC[C@]2(C(=O)O)CC[C@]3(C)C(=CC[C@@H]4[C@@]5(C)CC[C@H](O)C(C)(C)[C@@H]5CC[C@]43C)[C@@H]2C1	cell growth or viability, MTT	–	72 h	27.8 µM
Oc1c(Br)cc(Br)c2nc3c(C(F)(F)F)cc(C(F)(F)F)cc3nc12	cytotoxicity, LDH release	–	24 h, 10% FBS	> 100 µM
CC(=O)[O-].Nc1ccc(C([O-])=NN=Cc2ccc(OCC(=O)Nc3ccc(Cl)cc3)cc2)cc1.O.O.O.[Ni+2]	cytotoxicity, MTT	–	24 h	24.2 ± 2.2 µg/mL
CC1(C)[C@@H](O)CC[C@]2(C)[C@H]3CC=C4[C@@H]5C[C@](C)(CO)CC[C@]5(C(=O)O)CC[C@@]4(C)[C@]3(C)CC[C@@H]12	cell growth or viability, MTT	–	72 h	> 100 µM
CC(=O)Nc1ccc(-c2csc(NC3CCCCC3)n2)cc1	cell growth or viability, resazurin	–	72 h	> 80 µM
O=C1CCC(N2C(=O)c3cccc(NCCOCCOCCOCCOCCOCCOCCOCCNCCNc4nonc4/C(=N/O)Nc4ccc(F)c(Br)c4)c3C2=O)C(=O)N1 (centres unmarked)	cytotoxicity, MTT	–	48 h	37.4 µM
CC(=O)Nc1ccc(-c2csc(Nc3cccc(C(F)(F)F)c3)n2)cc1	cell growth or viability, resazurin	–	72 h	8.8 µM
CCc1ccc(C2=C3C(C)=CC(C)=[N+]3[B-](F)(F)n3c(C)cc(C)c32)cc1	cell growth or viability, MTT	–	24 h	> 50 µM

Some of these lines once more:
Structure (SMILES)	assay	system	setting	IC50
CCc1ccc(C2=C3C(C)=CC(C)=[N+]3[B-](F)(F)n3c(C)cc(C)c32)cc1	cell growth or viability, MTT	–	24 h	> 50 µM
